Results collected from several papers.
Compare with care: the assays were run in different laboratories. Numbers after ± are the reported error.

Compound	assay	system	setting	how to read	quantity	value
COC(=O)c1ccc(-c2cn(Cc3cc(Cl)ccc3O[11CH3])nn2)cc1	PET, Logan plot	rhesus monkey, cerebellum	dose not given, 40 min		volume of distribution	0.827 mL/cm³
C[N+]1(CC(=O)OC2CCCCCCCCCCC2)CCCCC1		mouse, plasma	intraperitoneal, 1 mg/kg, single dose		Tmax	4.98 min
CC(C)(O)c1ncc([S@](N)(=O)=NC(=O)Nc2c3c(cc4c2CCC4)CCC3)s1		healthy human subjects	oral, dose not given, higher doses		subjects with maculopapular or pruritic rash	10%
COCCOCCOCCOc1ccc(/C=C/C2=[N+]3C(=C(c4cc(OC)cc(OC)c4)c4c(C)c(I)c(/C=C/c5ccc(OCCOCCOCCOC)cc5)n4[B-]3(F)F)C(C)=C2I)cc1		dichloromethane			emission maximum	687 nm
Cn1c(=O)oc2ccc(-c3ccc(CC(C#N)NC(=O)C4CNCCCO4)c(F)c3)cc21 (centres unmarked)	refers to: skin exfoliation	human	60 mg single dose, fasted		subjects with TEAE	16.7%
NCCCC(=O)OCC(=O)c1ccc(O)c(F)c1F.O=C(O)C(F)(F)F	photolysis at 300 nm	ammonium acetate buffered acetonitrile-water	pH 5.0, 0.01 mol/L buffer		quantum yield of disappearance	0.16
NC[C@@H](C(=O)Nc1ccc(-c2cn[nH]c2)cc1)c1ccccc1	OECD 405 eye irritation	New Zealand White rabbit, eye	topical, 0.1%, 8 h (day 1), scale 0 to 3	direction not given	conjunctival redness score	0
O=C(NCCCN(CCCCN(CCCNC(=O)c1cccc(=O)n1[O-])C(=O)c1cccc(=O)n1[O-])C(=O)c1cccc(=O)n1[O-])c1cccc(=O)n1[O-].[89Zr+4]	radio-TLC	PBS	7 d, pH 7.4, 37 °C, with: Ni^2+ 10-fold excess		intact complex	97.4 ± 0.1%
Cc1ccccc1/N=N/c1ccc(/N=N/c2c(O)ccc3ccccc23)c(C)c1		extracted rat blood QC samples	0.2 µg/L, 12 h, room temperature, short-term stability		measured concentration	0.227 µg/L
CCCC(CCC)NC(=O)c1ccc(OC2OC(C(=O)O)C(O)C(O)C2O)c(O)c1 (centres unmarked)		male Sprague-Dawley rats, plasma	oral, 50 mg/kg of parent drug	relative to: 50 over 20 mg/kg dose	Cmax ratio	1.55
COC(=O)C(c1ccccc1Cl)N1CCC(SCC(=O)c2cccc(OC)c2)C(=CC(=O)O)C1 (mixture of isomers)	HPLC-MS/MS	feline citrate plasma	100 ng/mL, 72 h, 4 °C, storage stability		deviation from nominal	3%
CC(C)[C@H](NC(=O)CNC(=O)[C@H](CCC(N)=O)NC(=O)[C@H](C)N)C(=O)O	LC-MS/MS	human, male, plasma	intravenous, 30 mg/kg three times daily, day 3, first dose, 10 min infusion, geometric mean		volume of distribution	21 L/kg
NCCCC(=O)OCC(=O)c1cc(F)c(O)c(F)c1F.O=C(O)C(F)(F)F	photolysis, refers to: rearranged acid appearance	aqueous HEPES buffer with LiClO4	pH 8.2		quantum yield	< 0.01
[11CH3]c1ccc2nc(C3CCC3)n(-c3ccc4[nH]ncc4c3)c2n1	extrapolated from mouse biodistribution	human male			effective dose	4 µSv/MBq
COc1cc(NC(C)=O)c2c(c1O)-c1c(OC)c(OC)cc3c1C(C2)N(C)CC3 (centres unmarked)		rat, plasma	0.5 µg/mL, 4 h, room temperature, short-term storage		remaining compound	101 ± 3.2%
O=C(Cn1c(=O)c(Cc2ccccc2)nc2ccccc21)NN1C(=O)c2ccccc2C1=O	MTT	rat primary colonocytes, Albino rat, male	72 h, concentration at 100% viability		safe concentration	0.258 ± 0.018 µM

Compound	assay	system	setting	how to read	quantity	value
CC/C=C\C/C=C\C/C=C\C/C=C\C/C=C\CCCCOC(CC)C(=O)O (centres unmarked)	radioactivity, 14C-labelled	Wistar rat, male, muscle	oral, 100 mg/kg, 1 h		tissue concentration	3.6 µg equivalents/g tissue
COc1ccc2cc(-c3ccc(-c4ccc(C)cn4)nc3)oc2c1		aqueous HEPES buffer	pH 7.4, zinc-free ligand		emission maximum	478 nm
C[C@H](NC(=O)COC(=O)[C@H](C)NC(=O)CO)C(=O)O		water	pH 7, 65 °C		depolymerization half-life	0.6 min
NCCCC(=O)OCC(=O)c1ccc(O)cc1F.O=C(O)C(F)(F)F	photolysis at 300 nm	ammonium acetate buffered acetonitrile-water	pH 5.0, 0.01 mol/L buffer		quantum yield of GABA release	0.23
COc1cc(C)c(Cc2ccc(O)cc2)cc1[C@@H]1S[C@H](CO)[C@@H](O)[C@H](O)[C@H]1O		Japanese T2DM patients, urine	2.5 mg luseogliflozin, day 1, once daily	relative to: dose	urinary excretion 0-24 h	6.72 ± 0.749%
Cc1cc(N)nc(C[C@@H]2CNC[C@@H]2OCCNCC(F)(F)c2cccc(F)c2)c1	in vitro metabolic stability				metabolic rate	0.05 nmol/min/mg protein
N=C(N)NCCC[C@@H]1NC(=O)[C@H](Cc2c[nH]c3ccccc23)NC(=O)[C@@H](CC2CCCCC2)NC(=O)[C@@H]2CCCN2C(=O)[C@@H](NC(=O)CCc2ccccc2)CCCNC1=O		C57BL/6J mouse, spinal cord	intraperitoneal, 1 mg/kg, single dose, two-compartment model		redistribution rate constant (K21)	1.08 h⁻¹
O=C(O)[C@H]1O[C@@H](N(Cc2ccc(C(F)(F)F)nc2)c2ccc(Cc3c[nH]c4ncc(Cl)cc34)cn2)[C@H](O)[C@@H](O)[C@@H]1O		healthy men, urine	oral, 400 mg of [14C]-pexidartinib	relative to: radioactive dose	dose excreted	10.3%
CCCC1OC2CC3C4CCC5=CC(=O)C=CC5(C)C4C(O)CC3(C)C2(C(=O)COC(=O)CN)O1 (centres unmarked)		human plasma	200 µg/mL, 37 °C		time to rapid hydrolysis	≤ 6 h
O=c1nc(NO)ccn1[C@@H]1O[C@H](CO)[C@@H](O)[C@H]1O	western blot, refers to: CYP2E1	rats, CFA-induced arthritis, liver	oral, 80 mg/kg twice daily, 5 days	relative to: untreated arthritic rats	protein level	< 0.5 fold
CC(C)c1cnc(-c2cc(Cl)ccc2F)cc1Nc1ccncc1C(=O)NC(CO)CO	refers to: anaemia	human patients	oral, dose not given, grade 1		patients with related SAE	0%
CNC(=O)N[C@]1(C)CCC[C@@]2(C)C3CC[C@@]4(C)C[C@]3(CCC21)CC4=O (single isomer, unassigned)		male Sprague-Dawley rat, plasma	intravenous, 2 mg/kg		C0	3320 ng/mL
COc1ccc(/C=C/c2ccc(-c3ccc(C)cn3)nc2)cc1		aqueous HEPES buffer	pH 7.4, zinc-free ligand		fluorescence lifetime	1.11 ns
CC(C)[C@H](NC(=O)[C@@H]1CCCN1C(=O)[C@H](CCCNC(=N)N)NC(=O)[C@H](CS)NC(=O)[C@H](Cc1c[nH]c2ccccc12)NC(=O)[C@H](CCCNC(=N)N)NC(=O)[C@@H](Cc1ccccc1)NC(=O)[C@H](Cc1c[nH]cn1)NC(=O)[C@H](CCC(=O)O)NC(=O)[C@H](CS)NC(=O)[C@H](CS)NC(=O)COCCOCCNC(=O)[C@@H]1CC(=O)N[C@@H](CCCNC(=N)N)C(=O)NCC(=O)N[C@@H](CC(=O)O)C(=O)N[C@H](Cc2ccc(O)cc2)C(=O)N1)C(N)=O [technetium-99m labelled]		nude mouse, M21 melanoma xenograft, tumour over muscle	intravenous, 0.037 MBq, 2 h	relative to: tumour over muscle	tumour-to-tissue ratio	12.2 ± 7.85
CC(C)[C@H](NC(=O)[C@@H]1CCCN1C(=O)[C@H](CCCNC(=N)N)NC(=O)[C@H](CS)NC(=O)[C@H](Cc1c[nH]c2ccccc12)NC(=O)[C@H](CCCNC(=N)N)NC(=O)[C@@H](Cc1ccccc1)NC(=O)[C@H](Cc1c[nH]cn1)NC(=O)[C@H](CCC(=O)O)NC(=O)[C@H](CS)NC(=O)[C@H](CS)NC(=O)CNC(=O)[C@@H]1CC(=O)N[C@@H](CCCNC(=N)N)C(=O)NCC(=O)N[C@@H](CC(=O)O)C(=O)N[C@H](Cc2ccc(O)cc2)C(=O)N1)C(N)=O [technetium-99m labelled]		C57 mouse, female, B16/F1 melanoma, spleen	intravenous, 0.037 MBq, 24 h		tissue uptake	0.89 ± 0.04 %ID/g
COCCOCCOCCOCCC(=O)NCc1cc(CNC(=O)CCOCCOCCOCCOC)cc(-c2cc3cc4nc(c(-c5ccc(CCC(=O)O)cc5)c5[nH]c(cc6nc(c(OC)c2[nH]3)CC6(C)C)cc5-c2cc(CNC(=O)CCOCCOCCOCCOC)cc(CNC(=O)CCOCCOCCOCCOC)c2)CC4(C)C)c1		water with 5% DMF	room temperature		B band absorption maximum	362 nm

Some of these lines once more:
Compound	assay	system	setting	how to read	quantity	value
COC(=O)C(c1ccccc1Cl)N1CCC(SCC(=O)c2cccc(OC)c2)C(=CC(=O)O)C1 (mixture of isomers)	HPLC-MS/MS	feline citrate plasma	100 ng/mL, 72 h, 4 °C, storage stability		deviation from nominal	3%
C[C@H](NC(=O)COC(=O)[C@H](C)NC(=O)CO)C(=O)O		water	pH 7, 65 °C		depolymerization half-life	0.6 min
